Published values from different studies.
Numbered parts are unrelated; each lists some results of a single study. Values joined by “and” are separate records of one study, mostly repeats; a detail may differ.
UniProt P07550, sequence (whole entry, looked up): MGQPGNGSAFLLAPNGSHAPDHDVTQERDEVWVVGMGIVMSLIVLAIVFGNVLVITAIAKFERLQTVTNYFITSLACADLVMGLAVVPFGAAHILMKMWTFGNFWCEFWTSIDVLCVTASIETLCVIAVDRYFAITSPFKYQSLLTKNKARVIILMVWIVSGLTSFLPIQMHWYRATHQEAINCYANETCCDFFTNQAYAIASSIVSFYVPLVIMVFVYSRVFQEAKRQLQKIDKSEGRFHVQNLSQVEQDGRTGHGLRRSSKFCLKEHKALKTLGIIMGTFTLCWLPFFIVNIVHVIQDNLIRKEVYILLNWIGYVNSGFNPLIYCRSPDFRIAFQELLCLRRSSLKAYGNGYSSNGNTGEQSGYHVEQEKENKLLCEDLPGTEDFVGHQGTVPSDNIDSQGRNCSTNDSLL
UniProt P14416, sequence (whole entry, looked up): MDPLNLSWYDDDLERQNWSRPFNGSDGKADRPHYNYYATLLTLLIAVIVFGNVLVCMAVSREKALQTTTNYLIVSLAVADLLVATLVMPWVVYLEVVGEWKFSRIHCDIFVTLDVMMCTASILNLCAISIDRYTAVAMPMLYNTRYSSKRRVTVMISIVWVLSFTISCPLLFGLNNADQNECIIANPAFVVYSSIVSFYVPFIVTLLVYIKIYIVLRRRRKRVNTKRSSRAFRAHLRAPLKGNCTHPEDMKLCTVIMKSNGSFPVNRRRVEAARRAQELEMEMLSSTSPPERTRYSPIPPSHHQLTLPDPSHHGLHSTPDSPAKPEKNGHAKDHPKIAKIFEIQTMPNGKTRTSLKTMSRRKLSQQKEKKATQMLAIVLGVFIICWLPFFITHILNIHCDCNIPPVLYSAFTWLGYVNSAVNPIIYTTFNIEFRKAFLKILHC
UniProt Q5BJF2, sequence (whole entry, looked up): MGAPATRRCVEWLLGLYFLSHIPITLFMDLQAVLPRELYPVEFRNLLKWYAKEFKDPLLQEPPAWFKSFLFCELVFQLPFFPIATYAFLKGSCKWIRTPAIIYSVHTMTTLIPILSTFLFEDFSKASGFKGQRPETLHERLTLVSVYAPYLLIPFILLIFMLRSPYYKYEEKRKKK
UniProt Q99720, sequence (whole entry, looked up): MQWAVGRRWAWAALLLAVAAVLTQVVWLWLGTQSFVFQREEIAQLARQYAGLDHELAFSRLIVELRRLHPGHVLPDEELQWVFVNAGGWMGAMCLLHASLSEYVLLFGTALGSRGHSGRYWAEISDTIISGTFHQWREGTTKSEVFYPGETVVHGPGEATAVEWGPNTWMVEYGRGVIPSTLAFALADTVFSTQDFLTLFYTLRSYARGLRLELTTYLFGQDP
UniProt P08912, sequence (whole entry, looked up): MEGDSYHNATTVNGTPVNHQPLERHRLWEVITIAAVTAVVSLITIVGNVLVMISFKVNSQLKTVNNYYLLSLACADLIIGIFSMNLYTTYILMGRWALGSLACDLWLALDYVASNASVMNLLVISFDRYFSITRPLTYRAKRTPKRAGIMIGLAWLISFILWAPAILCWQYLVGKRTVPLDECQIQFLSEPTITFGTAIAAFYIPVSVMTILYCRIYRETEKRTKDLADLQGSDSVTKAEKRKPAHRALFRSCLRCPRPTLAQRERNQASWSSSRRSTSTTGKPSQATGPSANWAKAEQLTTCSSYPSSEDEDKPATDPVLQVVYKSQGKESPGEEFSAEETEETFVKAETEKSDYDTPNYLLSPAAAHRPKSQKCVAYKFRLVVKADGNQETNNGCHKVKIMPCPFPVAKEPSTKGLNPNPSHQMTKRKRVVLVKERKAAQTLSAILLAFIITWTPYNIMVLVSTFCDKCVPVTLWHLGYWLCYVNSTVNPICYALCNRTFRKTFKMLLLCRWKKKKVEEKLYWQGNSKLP

Set 1 — species: mouse; medium: microsomes or S9; concentration: 2 µM; time: 0.5 h; endpoint: remaining compound
SMILES = CC(C)Oc1cccc(/C=C(/F)Oc2ccc(OC[C@@H]3C[C@@](Cn4cncn4)(c4ccc(Cl)cc4Cl)N(C)O3)cc2)c1; value = 0%
SMILES = O=C(CN1N=C(c2ccccc2)Cn2c(cc3ccccc32)C1=O)N1CCN2CCCC2C1 (stereo not shown); value = 2.11%
SMILES = O=C(NCCNC1=NS(=O)(=O)c2ccccc21)c1cccc(Br)c1; value = 66.6%
SMILES = O=C(NCCN1CCCCC1)c1cc2ccccc2s1; value = 15.6%
SMILES = O=S(=O)(Nc1cccn2c(C3CCC3)nnc12)c1ccc2c(c1)OCCO2; value = 33%
SMILES = Cc1nc2n(n1)CC(Nc1ccc3nccnc3n1)CC2 (stereo not shown); value = 81.8%
SMILES = CCN(CC)CCCNc1sc(S(C)(=O)=O)nc1S(=O)(=O)c1ccc(C)cc1; value = 1.45%
SMILES = COc1ccccc1CNC(=O)C1(C)Cc2ccccc2C(=O)N1c1ccc(Cl)cc1 (stereo not shown); value = 0.345%
SMILES = CCC(=O)N1CCCC1c1nc2ccccc2n1CC(=O)N(c1ccccc1)C(C)C (stereo not shown); value = 3.49%

Set 2 — read-out: binding; technique: radioligand binding; concentration: 10 µM; endpoint: inhibition
SMILES: N#CN1CC[C@@H](C(=O)Nc2nc3c(s2)CN(C(=O)CN=[N+]=[N-])CC3)C1
target = Sigma intracellular receptor 2 (TMEM97, Homo sapiens, UniProt Q5BJF2); value = -18.7%
target = Muscarinic acetylcholine receptor M5 (CHRM5, Homo sapiens, UniProt P08912); value = 2.94%
target = Sigma non-opioid intracellular receptor 1 (SIGMAR1, Homo sapiens, UniProt Q99720); value = 6.56%
target = Beta-2 adrenergic receptor (ADRB2, Homo sapiens, UniProt P07550); value = -8.12%
target = D(2) dopamine receptor (DRD2, Homo sapiens, UniProt P14416); value = 4.82%

Set 3 — cell line: human CD34+ HSPC; technique: EdU flow cytometry; time: 24 h; endpoint: G2-M phase cells
SMILES: CC(C)C[C@@H]1NC(=O)[C@@H](N(C)C(=O)[C@H](CC2CCC2)NC(=O)[C@@H]2C[C@@H](F)CN2C(=O)C2(C(F)(F)F)CC(F)(F)C2)CCCCNC(=O)C2(CC2)NC(=O)[C@H](Cc2cc(Cl)ccc2Cl)N(C)C1=O
setting = 3000 nM; value = 8.99% and 10.1%
setting = 10000 nM; value = 9.04% and 8.12%
setting = 300 nM; value = 5.71% and 3.56%

Set 4 — read-out: enzyme activity; mode: inhibitor; concentration: 0.5 µM; reference: control; endpoint: remaining activity
Target: Calcium/calmodulin-dependent protein kinase type II subunit beta (CAMK2B, Homo sapiens, UniProt Q13554)
UniProt Q13554, sequence (whole entry, looked up): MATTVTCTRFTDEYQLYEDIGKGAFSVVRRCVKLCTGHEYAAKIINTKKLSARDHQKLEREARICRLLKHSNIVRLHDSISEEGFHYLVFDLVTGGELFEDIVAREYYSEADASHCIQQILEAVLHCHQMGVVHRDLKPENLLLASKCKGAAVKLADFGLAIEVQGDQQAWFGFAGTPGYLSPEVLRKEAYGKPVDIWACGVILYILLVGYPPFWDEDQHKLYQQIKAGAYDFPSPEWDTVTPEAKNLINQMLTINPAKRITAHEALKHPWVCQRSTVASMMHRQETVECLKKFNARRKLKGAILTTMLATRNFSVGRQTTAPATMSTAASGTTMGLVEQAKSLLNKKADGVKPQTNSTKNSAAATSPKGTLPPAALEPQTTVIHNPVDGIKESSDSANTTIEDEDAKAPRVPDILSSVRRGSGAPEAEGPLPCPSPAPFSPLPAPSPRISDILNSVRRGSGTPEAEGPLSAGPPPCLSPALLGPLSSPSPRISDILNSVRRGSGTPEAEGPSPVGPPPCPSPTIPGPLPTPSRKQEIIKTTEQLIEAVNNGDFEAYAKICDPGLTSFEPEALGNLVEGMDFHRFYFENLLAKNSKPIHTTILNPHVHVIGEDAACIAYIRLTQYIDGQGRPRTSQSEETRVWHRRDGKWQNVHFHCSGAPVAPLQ
SMILES = O=C(Nc1cccc(Nc2cc(Nc3cccc(C(F)(F)F)c3)ncn2)c1)C1CC1; value = 105%
SMILES = Nc1ccc2ncnc(NCCc3ccc(Oc4ccccc4)cc3)c2c1; value = 95.1%
SMILES = Cc1ccc(NC(=O)c2ccc(CN3CCN(C)CC3)cc2)cc1Nc1nc(-c2cccnc2)cs1; value = 100%
SMILES = CO[C@H]1C[C@@H]2CC[C@@H](C)[C@@](O)(O2)C(=O)C(=O)N2CCCC[C@H]2C(=O)O[C@H]([C@H](C)C[C@@H]2CC[C@@H](O)[C@H](OC)C2)CC(=O)[C@H](C)/C=C(\C)[C@@H](O)[C@@H](OC)C(=O)[C@H](C)C[C@H](C)/C=C/C=C/C=C/1C; value = 99.2%
SMILES = O=S(=O)(c1cccc2cnccc12)N1CCCNCC1; value = 93.2%
SMILES = COc1ccc(CNC(=O)Nc2ncc([N+](=O)[O-])s2)cc1; value = 103%
SMILES = CC(C)[C@H](CO)Nc1nc(Nc2cc(N)cc(Cl)c2)c2ncn(C(C)C)c2n1; value = 98.2%
SMILES = O=C(CCCc1ccc(-c2ccccc2F)cc1)Nc1ccc(O)cc1; value = 99.9%
SMILES = COc1ccc(OC)c2c(=S)c3ccccc3[nH]c12; value = 104%
SMILES = O=C(O)c1ccc2c3c1cccc3c(=O)n1c3ccccc3nc21; value = 92.6%
SMILES = Nc1[nH]nc2nc3ccccc3nc12; value = 90%
SMILES = CNC(=O)c1cc(Oc2ccc(NC(=O)Nc3ccc(Cl)c(C(F)(F)F)c3)cc2)ccn1; value = 96.7%
SMILES = COc1cc2ncnc(Nc3ccc(Oc4ccccc4)cc3)c2cc1OC; value = 98.2%
SMILES = Cn1sc(=O)n(Cc2ccccc2)c1=O; value = 102%

Repeated from above (set 1):
SMILES = O=S(=O)(Nc1cccn2c(C3CCC3)nnc12)c1ccc2c(c1)OCCO2; value = 33%
SMILES = CCC(=O)N1CCCC1c1nc2ccccc2n1CC(=O)N(c1ccccc1)C(C)C (stereo not shown); value = 3.49%
